Assay results of several laboratories.
Several values in a cell are separate wells, animals, samples, runs or records. ± marks the error that the study gave.
GUK1: GUK1 (Homo sapiens, UniProt Q16774)
Nuclear receptor subfamily 2 group C member 2 ligand-binding domain: Nuclear receptor subfamily 2 group C member 2, ligand-binding domain (Homo sapiens, UniProt P49116)
XPO1: Exportin-1 (XPO1, Homo sapiens, UniProt O14980)

SMILES	tested on	test	test system	conditions	scale	quantity	value
CCOc1ccc(NC(=O)O[C@H](Cn2nc(C(C)C)cc2C(C)C)C(C)C)cc1	Neuronal acetylcholine receptor; alpha4/beta2 (Homo sapiens, UniProt P17787+P43681)	ion current, potentiator, TEVC	–	1 µM, low-sensitivity (α4)3(β2)2, added: ACh 10 µM	baseline: ACh alone	ACh peak current	94 ± 4%
Nc1nc2c(ncn2[C@@H]2O[C@H](COP(=O)(O)O)[C@@H](O)[C@H]2O)c(=O)[nH]1	GUK1	enzyme activity, NADH-coupled	–	125 µM, added: NaCl 150 mM	–	reaction velocity	0.0713 µM/s and 0.074 µM/s and 0.0442 µM/s
Cn1cc(-c2ccc(-c3cncc(Cl)c3N3CCC4(CCNC4=O)CC3)cc2)cn1	COLO 205	microarray, measured: ASS1	–	concentration not given, 6 h, gene set ASSY	baseline: untreated cells	fold change in expression	3.22
[O-][S+]1CCCCS1 (centres unmarked)	Superoxide dismutase [Cu-Zn] (SOD1, Homo sapiens, UniProt P00441, G94A)	intact protein LC-MS	SOD1 G93A transgenic mice, whole blood	oral, 150 mg/kg, 4 h, mean of two mice	–	target engagement	41.3 % cross-linked dimer
COC(=O)CCc1ccc(OCC(O)CNC(C)C)cc1 (centres unmarked)	Nuclear receptor subfamily 2 group C member 2 ligand-binding domain	SPR imaging	–	600 nM	–	koff	2.8e-07 s⁻¹
CC1(C)CC2(C)OC(=O)NC2(C)c2ccccc21 (centres unmarked)	E3 SUMO-protein ligase PIAS1 (PIAS1, Homo sapiens, UniProt O75925)	binding, affinity selection mass spectrometry	–	–	baseline: other proteins in batch	log fold enrichment	0.121
CCN(CCO)CCCC(C)Nc1ccnc2cc(Cl)ccc12 (centres unmarked)	Sodium channel protein type 5 subunit alpha (SCN5A, Homo sapiens, UniProt Q14524)	sodium current	–	10 µM	–	activation V1/2	-49.8 ± 3.8 mV
CCCC[C@H]1CN(c2cccc(OC(F)(F)F)c2)C(=O)CN1Cc1cncn1Cc1ccc(Oc2ccccc2)c(C#N)c1	Cryptococcus neoformans farnesyltransferase	enzyme activity, inhibitor, fluorescence	–	added: 1 µM FPP, 0.5 µM dansylated peptide	–	IC50	0.21 ± 0.1 µM
Cc1cccc(N2CC(C(=O)O)CC2=O)c1 (centres unmarked)	S-phase kinase-associated protein 1 (SKP1, Homo sapiens, UniProt P63208)	binding, affinity selection mass spectrometry	–	–	baseline: other proteins in batch	log fold enrichment	0.0239
O=C(COP(=O)(O)O)[C@@H](O)[C@H](O)[C@H](O)COP(=O)(O)O	XPO1	thermal proteome profiling	HepG2 cell lysate	concentration not given, 57 over 37 °C	baseline: compound over control	thermal stability ratio	0.667 and 0.5 and 0.6
CC(C)C[C@H](NC(=O)C[C@H](O)[C@H](CC(C)C)NC(=O)[C@H](Cc1c[nH]cn1)NC(=O)CNC(=O)[C@@H](NC(=O)[C@H](C)NC(=O)[C@H](Cc1c[nH]c2ccccc12)NC(=O)[C@H](CCC(N)=O)NC(=O)[C@@H](Cc1ccccc1)NC(=O)COCCOCCNC(=O)CCC(C(=O)O)N1CCN(CC(=O)O)CCN(CC(=O)O)CCN(CC(=O)O)CC1)C(C)C)C(N)=O (some centres unmarked) [lutetium-177 labelled]	–	–	BALB/c nu/nu mice, spleen	intravenous, 100 pmol, 1 h, added: PA 300 µg	–	tissue uptake	0.2 ± 0.07 %ID/g
COc1cc(-c2cncc3c2CN(C)Cc2cc(N4CCNCC4)ccc2-3)cc(OC)c1OC	Serine/threonine-protein kinase Nek4 (NEK4, Homo sapiens, UniProt P51957)	kinase activity	–	1 µM, human enzyme, added: ATP 10 µM	baseline: DMSO control	remaining activity	105%
CC[S+]([O-])c1nc(-c2ccccc2)cc(C(F)(F)F)n1 (centres unmarked)	XPO1	nuclear export, high content imaging	HeLa Kyoto reporter	0.05 µM, 2 h	–	cells with nuclear reporter	2.88% and 4.7% and 1.37%
COc1cc2c(cc1OC)C(=O)C(CC1CCN(Cc3ccccc3)CC1)C2 (centres unmarked)	5-hydroxytryptamine receptor 4 (HTR4, Homo sapiens, UniProt Q13639)	radioligand binding	–	concentration not given	–	inhibition	3.7%
C[C@H](N)C(=O)N[C@@H](CCCNC(=N)N)C(=O)N[C@H](C(=O)N[C@@H](CCCCN)C(=O)N[C@@H](CCC(N)=O)C(=O)N[C@H](C(=O)N[C@@H](C)C(=O)N[C@@H](CCCNC(=N)N)C(=O)N[C@@H](C)C(=O)N[C@@H](CO)C(=O)O)[C@@H](C)O)[C@@H](C)O	Transcriptional regulator ATRX (ATRX, Homo sapiens, UniProt P46100, F284Y/K251R)	isothermal titration calorimetry	–	concentration not given, pH 7.5, 25.0 °C	–	binding enthalpy	-13.4 kJ/mol
O=c1nc(SCc2cc(F)cc(C(F)(F)F)c2)nc(SCc2ccc3sccc3c2)[nH]1	DNA topoisomerase 2-alpha (TOP2A, Homo sapiens, UniProt P11388)	DNA cleavage	–	125 µM	–	mean linear DNA	6.74%
COc1cc[nH]c1/C=C1\C(=O)Nc2ccc([N+](=O)[O-])c(N3CC[C@@H](O)C3)c21	Serine/threonine protein kinase UL97 (Human herpesvirus 5, UniProt P16788)	high molecular weight UL97, western blot	infected cells	–	–	UL97 autophosphorylation	no effect
Oc1ccc(/C=C/c2cc(O)cc(O)c2)cc1	O-methyltransferase (Sorghum bicolor, UniProt A0A1B6PFV1)	ITC	–	added: ADN+	–	-TΔS	25 kJ/mol
COc1c(O)c(C)cc2c1C(=O)c1c(ccc(O)c1O)C2=O	HepaRG co-cultured with HK-2	MTT	–	16.67 µM, 48 h	baseline: untreated control	cell viability	71.2 ± 13.1%
C[C@@H]1Cc2ccccc2N1C(=O)NCCCCN(C)[C@@H]1Cc2cccc3[nH]c(=O)n(c23)C1	5-hydroxytryptamine receptor 1A (HTR1A, Homo sapiens, UniProt P08908)	binding	–	added: [3H]8-OH-DPAT	–	Hill coefficient	-0.51 ± 0.01
C[C@@H](c1ccc(-n2cnc3c(N)ncnc32)cc1)N1CCc2nn(C)c(Cc3ccccc3)c2C1=O	Epidermal growth factor receptor (EGFR, Homo sapiens, UniProt P00533, G719S)	KINOMEscan	–	0.1 µM	baseline: DMSO control	remaining binding	85%

SMILES	tested on	test	test system	conditions	scale	quantity	value
O=C(O)c1cc(/N=N/c2ccc(S(=O)(=O)Nc3ccccn3)cc2)ccc1O	Nuclear receptor subfamily 2 group C member 2 ligand-binding domain	SPR imaging	–	600 nM	–	koff	8e-08 s⁻¹
CCN1CCC[C@H]1CNC(=O)c1c(O)c(Cl)cc(Cl)c1OC	G-protein coupled receptor 37-like 1 (GPR37L1, Homo sapiens, UniProt O60883)	β-arrestin recruitment, TANGO luminescence	–	concentration not given	baseline: basal luminescence	log2 fold change	-0.252
CN[C@@H]1[C@H](O)[C@H](NC)[C@H]2O[C@@]3(O)C(=O)C[C@@H](C)O[C@H]3O[C@@H]2[C@H]1O.Cl.Cl.O.O.O.O.O	Nuclear receptor subfamily 2 group C member 2 ligand-binding domain	SPR imaging	–	600 nM	–	koff	3.06e-07 s⁻¹
CC(C)C[C@@H]1NC(=O)[C@H](C(C)C)NC(=O)CNC(=O)[C@H](CC(N)=O)NC(=O)[C@@H]2CCCN2C(=O)[C@H](Cc2ccc(O)cc2)NC(=O)[C@H](CCCNC(=N)N)NC(=O)[C@H](Cc2ccccc2)NC(=O)[C@@H](NC(=O)[C@H](CCCCN)NC(=O)[C@H](C)NC(=O)[C@H](CO)NC(=O)[C@H](C)NC(=O)[C@@H](N)Cc2ccc(O)cc2)CSSC[C@@H](C(=O)N[C@H](C(N)=O)[C@@H](C)O)NC(=O)[C@H](C)NC1=O	Alpha-2-HS-glycoprotein, asialo (AHSG, Bos taurus, UniProt P12763)	binding, isothermal titration calorimetry	–	pH 7.0, 25 °C, added: asialofetuin	–	-ΔG	23.9 kJ/mol
c1cncc(OC[C@H]2CN(CCN3CCc4ccccc43)CCO2)c1	D(1B) dopamine receptor (DRD5, Homo sapiens, UniProt P21918)	radioligand binding	–	concentration not given, added: [3H]SCH23390	–	inhibition	12.7%
Nc1ncnc2c1ncn2[C@@H]1O[C@H](COP(=O)(O)OP(=O)(O)OP(=O)(O)O)[C@@H](O)[C@H]1O	P2X purinoceptor 7 (P2rx7, Rattus norvegicus, UniProt Q64663, I214A/R125A)	ion current, agonist, two-electrode voltage clamp	Xenopus laevis oocytes	1.1 µM	baseline: highest concentration response	normalized current	0
O=C(Nc1ccc(CN2CCOCC2)c(C(F)(F)F)c1)c1ccc(C#Cc2cccc3cnccc23)cn1	Oxidized purine nucleoside triphosphate hydrolase (NUDT1, Homo sapiens, UniProt P36639)	activator, ARGO probe luminescence	–	10 µM, 1 h preincubation	baseline: without activator	activity	1000 ± 100%
Cc1n[nH]c2ccc(-c3cc(OC[C@@H](N)Cc4ccccc4)cnc3-c3ccoc3)cc12	Serine/threonine-protein kinase CBK1 (CBK1, Candida albicans, UniProt Q5AP53)	kinase binding, competitor, MIB/MS competition, measured: CBK1	Candida albicans cell lysate	1 µM	baseline: DMSO	log2 fold change	-0.0808
C=CC(=O)N1CCC(COCC(=O)N2CCN(c3nc(-c4cnc(N)nc4C(F)F)nc(N4CCOC[C@@H]4C)n3)CC2)CC1	Bone morphogenetic protein receptor type-1B (BMPR1B, Homo sapiens, UniProt O00238)	KINOMEscan	–	1 µM	–	remaining binding	89%
O=S(=O)(O)C1CCNCC1	Sodium- and chloride-dependent taurine transporter (SLC6A6, Homo sapiens, UniProt P31641, Y138A)	binding, microscale thermophoresis	–	43.2 nM, fitted curve	higher = more binding	fraction bound	0
Nc1ncnc2c1ncn2[C@@H]1O[C@H](COP(=O)(O)OP(=O)(O)NP(=O)(O)O)[C@@H](O)[C@H]1O	Cell cycle histidine kinase CckA, CA domain (Caulobacter vibrioides, UniProt Q9X688)	ITC	–	without c-di-GMP	–	ΔS	15.8 cal/mol/K
O=C1c2cccc(O)c2C(=O)c2c(O)cc(CO)cc21	HepaRG co-cultured with HK-2	MTT	–	33.33 µM, 48 h	baseline: untreated control	cell viability	67.7 ± 6.52%
Nc1ncnc2c1ncn2[C@@H]1O[C@H](COP(=O)(O)CP(=O)(O)OP(=O)(O)O)[C@@H](O)[C@H]1O	P2X purinoceptor 1 (P2RX1, Homo sapiens, UniProt P51575, S286A)	calcium influx	–	1 µM	baseline: ionomycin response	calcium influx	83.5% and 99.8% and 100%
CCCCCCCCC(=O)c1cc(O)c(O)c(O)c1	COS-7	–	–	30 µM, 24 h, 0.1% DMSO, unit not given	baseline: vehicle control	necrotic cells	0.54 ± 0.3
Nc1nc2c(ncn2[C@@H]2O[C@H](COP(=O)(O)OP(=O)(O)O)[C@@H](O)[C@H]2O)c(=O)[nH]1	GUK1	ITC	–	concentration not given	–	-TΔS of binding	1.1 kJ/mol
CC[C@H](C)[C@@H]1NC(=O)[C@H](CCCNC(=N)N)NC(=O)[C@@H]2CCCN2C(=O)[C@H](Cc2ccccc2)NC(=O)[C@H]([C@@H](C)O)NC(=O)CNC(=O)[C@H](CC(C)C)NC(=O)[C@@H]2CCCN2C(=O)[C@H]([C@@H](C)O)NC(=O)[C@H](Cc2c[nH]c3ccccc23)NC(=O)[C@H](Cc2ccc(O)cc2)NC(=O)[C@H]([C@@H](C)CC)NC(=O)[C@H]([C@@H](C)O)NC(=O)[C@H]([C@@H](C)O)NC(=O)[C@@H](Cc2ccc(O)cc2)NC(=O)CSC[C@@H](C(N)=O)NC(=O)[C@H](CCCNC(=N)N)NC1=O	VPS35/VPS29 (Homo sapiens, UniProt Q96QK1+Q9UBQ0)	binding, ITC	–	25 °C, heterodimer	–	ΔG	-41 ± 0.293 kJ/mol
N[C@H](Cc1ccccc1)C(=O)O	PAL1 (Petroselinum crispum, UniProt P24481, Y110F)	binding, ITC	–	–	–	-TΔS	96.1 kJ/mol
O=C1OC(c2ccccc2)=N/C1=C\c1ccccc1O	Pancreatic alpha-amylase (Homo sapiens, UniProt P04746)	inhibitor, Lineweaver-Burk	–	300 ppm, added: starch substrate	–	Vmax	0.051 mg/mL/min
CC(Oc1ccccc1)C(=O)NCc1ccccn1 (centres unmarked)	Coatomer subunit beta', WD repeat domain (Homo sapiens, UniProt P35606)	binding, affinity selection mass spectrometry	–	–	baseline: other proteins in batch	fold enrichment	0.718
C=CC(=O)N1CCC(C(=O)NCC(=O)N2CCN(c3nc(-c4cnc(N)nc4C(F)F)nc(N4CCOCC4)n3)CC2)CC1	Activin receptor type-2B (ACVR2B, Homo sapiens, UniProt Q13705)	KINOMEscan	–	1 µM	–	remaining binding	91%

Some of these lines once more:
SMILES	tested on	test	test system	conditions	scale	quantity	value
C[C@H](N)C(=O)N[C@@H](CCCNC(=N)N)C(=O)N[C@H](C(=O)N[C@@H](CCCCN)C(=O)N[C@@H](CCC(N)=O)C(=O)N[C@H](C(=O)N[C@@H](C)C(=O)N[C@@H](CCCNC(=N)N)C(=O)N[C@@H](C)C(=O)N[C@@H](CO)C(=O)O)[C@@H](C)O)[C@@H](C)O	Transcriptional regulator ATRX (ATRX, Homo sapiens, UniProt P46100, F284Y/K251R)	isothermal titration calorimetry	–	concentration not given, pH 7.5, 25.0 °C	–	binding enthalpy	-13.4 kJ/mol
O=c1nc(SCc2cc(F)cc(C(F)(F)F)c2)nc(SCc2ccc3sccc3c2)[nH]1	DNA topoisomerase 2-alpha (TOP2A, Homo sapiens, UniProt P11388)	DNA cleavage	–	125 µM	–	mean linear DNA	6.74%
COc1cc[nH]c1/C=C1\C(=O)Nc2ccc([N+](=O)[O-])c(N3CC[C@@H](O)C3)c21	Serine/threonine protein kinase UL97 (Human herpesvirus 5, UniProt P16788)	high molecular weight UL97, western blot	infected cells	–	–	UL97 autophosphorylation	no effect
Oc1ccc(/C=C/c2cc(O)cc(O)c2)cc1	O-methyltransferase (Sorghum bicolor, UniProt A0A1B6PFV1)	ITC	–	added: ADN+	–	-TΔS	25 kJ/mol
COc1c(O)c(C)cc2c1C(=O)c1c(ccc(O)c1O)C2=O	HepaRG co-cultured with HK-2	MTT	–	16.67 µM, 48 h	baseline: untreated control	cell viability	71.2 ± 13.1%
C[C@@H]1Cc2ccccc2N1C(=O)NCCCCN(C)[C@@H]1Cc2cccc3[nH]c(=O)n(c23)C1	5-hydroxytryptamine receptor 1A (HTR1A, Homo sapiens, UniProt P08908)	binding	–	added: [3H]8-OH-DPAT	–	Hill coefficient	-0.51 ± 0.01
C[C@@H](c1ccc(-n2cnc3c(N)ncnc32)cc1)N1CCc2nn(C)c(Cc3ccccc3)c2C1=O	Epidermal growth factor receptor (EGFR, Homo sapiens, UniProt P00533, G719S)	KINOMEscan	–	0.1 µM	baseline: DMSO control	remaining binding	85%
